Experimental data collected from several papers.
Parts stem from different laboratories: compare values within a part only.

Block 1
Target: TAR DNA-binding protein 43, full length, His tag (TARDBP, Homo sapiens, UniProt Q13148, residues 1-414)
Technique: RNA Bind-n-Seq
Molecule type: RNA
Sample: in vitro
Tested at: 20 nM
Setting: 6-mer, flanks averaged, single round
Together with: 150 mM LiCl
Relative to: input library
Reading: higher = stronger binding
| Oligonucleotide | 6-mer enrichment (R) |
| --- | --- |
| CGUGGC | 1.01 |
| CUACCA | 0.857 |
| AGCCUG | 0.903 |
| AAUUGA | 0.903 |
| GUGUUA | 1.41 |
| UAAUGA | 0.919 |
| GUAUCA | 0.867 |
| UAGAGG | 1.06 |

Block 2
Target: Centromere-binding protein 1, full length, N-terminal tag (CBF1, Saccharomyces cerevisiae, UniProt P17106, residues 1-351)
Chain of UniProt P17106 (whole entry, looked up): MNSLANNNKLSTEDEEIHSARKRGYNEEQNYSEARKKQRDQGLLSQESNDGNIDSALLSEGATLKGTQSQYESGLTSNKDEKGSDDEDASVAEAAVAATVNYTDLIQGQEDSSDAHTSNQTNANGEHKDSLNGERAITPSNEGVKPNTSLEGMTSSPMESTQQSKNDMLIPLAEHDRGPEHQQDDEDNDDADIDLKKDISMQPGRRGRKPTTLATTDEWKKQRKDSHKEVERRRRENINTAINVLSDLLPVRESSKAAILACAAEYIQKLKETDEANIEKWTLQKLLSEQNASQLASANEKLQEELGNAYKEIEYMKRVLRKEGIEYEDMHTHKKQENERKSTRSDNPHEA
Technique: protein-binding microarray
Molecule type: double-stranded DNA, one strand shown
Sample: in vitro
Tested at: 0.8 µM
Setting: whole 60-bp probe, no competitor
Reading: higher = stronger binding
Constant ends, left off below: … GTCTTGATTCGCTTGACGCTGCTG
| Oligonucleotide | fluorescence intensity |
| --- | --- |
| GAAGTCAACTCCATTCACATGCATCAGTTGAAATAG | 626 a.u. |
| CTAAAAACTTTTATCCACATGCAGTAAAAATAATTC | 689 a.u. |
| CTAACGGCTAATAAAAACGTGAACCTGTTTTAATTC | 711 a.u. |
| CTAAAAGAAAAGTTTCACATGAGAAGCACTGATTTC | 513 a.u. |
| GAAGCATATTTGAGTATCGTGATCCCTTTTTTTTAG | 1460 a.u. |
| GAAGAATCTTCGTCTCACGTGGTTTCTCAGCGTTAG | 5050 a.u. |
| TGTACGAAGCTATGTGATCTGCGTATAGTAGTTAGG | 547 a.u. |

Block 3
Target: Sal-like protein 4, full length isoform B (SALL4, Homo sapiens, UniProt Q9UJQ4-2, residues 1-616)
Technique: universal PBM
Molecule type: double-stranded DNA, one strand shown
Sample: in vitro
Tested at: not given
Setting: 8-mer, flanks averaged, mean of replicates
Reading: higher = stronger binding
| Oligonucleotide | E-score |
| --- | --- |
| CGCGGTAG | -0.0653 |
| AGTAGTGA | 0.189 |
| AGGGAGGG | -0.274 |
| TAGATCGA | 0.0863 |
| AGCTGAGG | -0.135 |
| CGGCGGAA | -0.251 |
| CTGAGTGA | -0.0923 |
| AACGGGCG | -0.125 |
| ATTGCCTG | -0.0541 |

Single results of other studies
| Molecule | target | assay | system | setting | scale | measurement | result |
| --- | --- | --- | --- | --- | --- | --- | --- |
| PhoQ, residues 284 288 289 292 302 303 SIHMAM | PhoP, residues 12 14 15 18 19 NQGLL (Escherichia coli, UniProt P23836) | Sort-seq, refers to: YFP reporter | E. coli | PhoQ-PhoP variant library, together with: 10 µM Mg2+ | relative to: high Mg2+ state, higher = stronger signaling | fold induction | 4.89 |

Some of these lines once more (block 2):
| Oligonucleotide | fluorescence intensity |
| --- | --- |
| CTAAAAGAAAAGTTTCACATGAGAAGCACTGATTTC | 513 a.u. |
| TGTACGAAGCTATGTGATCTGCGTATAGTAGTTAGG | 547 a.u. |
| GAAGAATCTTCGTCTCACGTGGTTTCTCAGCGTTAG | 5050 a.u. |
| GAAGTCAACTCCATTCACATGCATCAGTTGAAATAG | 626 a.u. |
